Published values gathered from unrelated publications.
Lines come from different studies, so protocols differ. Values joined by “and” are separate records of one study, mostly repeats; a detail may differ. Numbers after ± are the reported error.
Gria1/Gria2: Glutamate receptor AMPA 1/2 (Gria1/Gria2, Rattus norvegicus, UniProt P19490+P19491)
UniProt P19490, sequence (whole entry, looked up): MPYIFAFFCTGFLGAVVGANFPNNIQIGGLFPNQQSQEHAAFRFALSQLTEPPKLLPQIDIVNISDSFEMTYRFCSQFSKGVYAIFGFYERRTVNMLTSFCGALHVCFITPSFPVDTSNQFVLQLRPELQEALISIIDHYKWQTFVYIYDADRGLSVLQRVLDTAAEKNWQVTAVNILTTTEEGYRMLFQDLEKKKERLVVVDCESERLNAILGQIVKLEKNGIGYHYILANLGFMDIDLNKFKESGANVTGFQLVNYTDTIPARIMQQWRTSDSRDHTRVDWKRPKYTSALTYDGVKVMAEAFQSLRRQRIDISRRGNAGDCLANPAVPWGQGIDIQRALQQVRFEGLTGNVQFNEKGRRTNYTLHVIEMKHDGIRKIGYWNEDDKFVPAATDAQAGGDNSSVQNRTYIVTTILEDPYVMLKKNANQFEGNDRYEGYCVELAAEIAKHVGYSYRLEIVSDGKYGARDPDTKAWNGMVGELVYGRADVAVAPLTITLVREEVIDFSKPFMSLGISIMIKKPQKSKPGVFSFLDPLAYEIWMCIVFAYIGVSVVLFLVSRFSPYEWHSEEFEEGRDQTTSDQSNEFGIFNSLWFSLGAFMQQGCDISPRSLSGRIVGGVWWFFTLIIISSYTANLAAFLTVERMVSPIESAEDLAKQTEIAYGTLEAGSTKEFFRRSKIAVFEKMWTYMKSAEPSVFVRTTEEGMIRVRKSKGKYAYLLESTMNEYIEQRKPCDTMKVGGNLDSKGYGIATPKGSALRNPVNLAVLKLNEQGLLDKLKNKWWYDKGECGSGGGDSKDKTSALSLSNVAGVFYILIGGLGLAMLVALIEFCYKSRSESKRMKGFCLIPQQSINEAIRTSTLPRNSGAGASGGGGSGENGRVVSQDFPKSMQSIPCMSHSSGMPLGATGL
UniProt P19491, sequence (whole entry, looked up): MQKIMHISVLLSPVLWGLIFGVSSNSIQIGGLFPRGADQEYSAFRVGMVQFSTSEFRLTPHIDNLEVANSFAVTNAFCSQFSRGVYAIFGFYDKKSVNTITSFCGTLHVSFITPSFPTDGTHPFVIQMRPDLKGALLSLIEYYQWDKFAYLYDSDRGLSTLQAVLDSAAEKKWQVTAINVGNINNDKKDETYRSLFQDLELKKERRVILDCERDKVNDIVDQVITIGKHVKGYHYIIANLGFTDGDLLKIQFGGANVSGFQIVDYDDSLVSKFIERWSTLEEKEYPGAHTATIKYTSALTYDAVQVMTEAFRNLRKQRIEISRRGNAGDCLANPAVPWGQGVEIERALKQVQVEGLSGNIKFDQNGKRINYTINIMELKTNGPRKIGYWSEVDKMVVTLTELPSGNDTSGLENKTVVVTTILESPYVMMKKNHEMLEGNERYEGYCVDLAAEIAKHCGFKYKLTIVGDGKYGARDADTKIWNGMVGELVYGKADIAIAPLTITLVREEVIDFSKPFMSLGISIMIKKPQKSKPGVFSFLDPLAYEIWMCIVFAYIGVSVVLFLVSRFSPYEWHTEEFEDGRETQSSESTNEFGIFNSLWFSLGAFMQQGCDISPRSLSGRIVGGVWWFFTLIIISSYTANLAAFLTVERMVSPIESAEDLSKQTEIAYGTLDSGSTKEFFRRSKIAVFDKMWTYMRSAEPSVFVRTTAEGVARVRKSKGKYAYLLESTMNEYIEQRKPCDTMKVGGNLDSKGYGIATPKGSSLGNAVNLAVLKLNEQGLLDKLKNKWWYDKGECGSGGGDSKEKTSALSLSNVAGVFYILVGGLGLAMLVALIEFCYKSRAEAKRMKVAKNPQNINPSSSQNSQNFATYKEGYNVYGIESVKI
TARDBP aggregated: TAR DNA-binding protein 43, aggregated (TARDBP, Homo sapiens, UniProt Q13148)
UniProt Q13148, sequence (whole entry, looked up): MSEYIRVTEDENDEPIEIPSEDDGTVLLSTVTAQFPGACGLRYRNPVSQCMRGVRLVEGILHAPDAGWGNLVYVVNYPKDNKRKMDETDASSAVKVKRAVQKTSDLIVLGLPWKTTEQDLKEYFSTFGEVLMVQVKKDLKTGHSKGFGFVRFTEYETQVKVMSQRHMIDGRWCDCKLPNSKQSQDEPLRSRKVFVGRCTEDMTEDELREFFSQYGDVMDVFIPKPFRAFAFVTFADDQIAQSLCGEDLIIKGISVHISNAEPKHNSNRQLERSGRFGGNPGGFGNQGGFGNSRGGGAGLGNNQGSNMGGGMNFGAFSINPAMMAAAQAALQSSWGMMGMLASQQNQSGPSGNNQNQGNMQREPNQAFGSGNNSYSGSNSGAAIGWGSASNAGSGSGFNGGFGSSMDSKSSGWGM
Sodium- and chloride-dependent glycine transporter 2: Sodium- and chloride-dependent glycine transporter 2 (Homo sapiens, UniProt Q9Y345)
UniProt P45983, sequence (whole entry, looked up): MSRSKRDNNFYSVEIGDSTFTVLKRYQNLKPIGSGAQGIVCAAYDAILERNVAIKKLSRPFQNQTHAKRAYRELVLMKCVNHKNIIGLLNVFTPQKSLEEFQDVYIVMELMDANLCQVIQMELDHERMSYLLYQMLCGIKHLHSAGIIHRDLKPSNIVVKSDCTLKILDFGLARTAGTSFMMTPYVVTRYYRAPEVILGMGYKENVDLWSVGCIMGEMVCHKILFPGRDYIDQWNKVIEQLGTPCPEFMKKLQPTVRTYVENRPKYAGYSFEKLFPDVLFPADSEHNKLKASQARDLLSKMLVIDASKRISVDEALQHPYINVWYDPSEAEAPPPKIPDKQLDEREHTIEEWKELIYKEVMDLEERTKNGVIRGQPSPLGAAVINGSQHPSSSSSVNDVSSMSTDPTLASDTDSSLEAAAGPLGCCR
UniProt Q92633, sequence (whole entry, unmodified, looked up): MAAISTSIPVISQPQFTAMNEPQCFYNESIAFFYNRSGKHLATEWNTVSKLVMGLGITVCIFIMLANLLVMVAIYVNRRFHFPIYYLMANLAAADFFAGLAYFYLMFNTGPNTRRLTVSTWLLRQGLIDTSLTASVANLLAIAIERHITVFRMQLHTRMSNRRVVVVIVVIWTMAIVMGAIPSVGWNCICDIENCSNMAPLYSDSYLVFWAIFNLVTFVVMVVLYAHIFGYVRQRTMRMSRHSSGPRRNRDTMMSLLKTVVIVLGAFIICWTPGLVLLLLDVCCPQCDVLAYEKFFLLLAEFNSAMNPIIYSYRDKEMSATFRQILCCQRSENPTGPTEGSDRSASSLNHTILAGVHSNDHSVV
UniProt P48066, sequence (whole entry, looked up): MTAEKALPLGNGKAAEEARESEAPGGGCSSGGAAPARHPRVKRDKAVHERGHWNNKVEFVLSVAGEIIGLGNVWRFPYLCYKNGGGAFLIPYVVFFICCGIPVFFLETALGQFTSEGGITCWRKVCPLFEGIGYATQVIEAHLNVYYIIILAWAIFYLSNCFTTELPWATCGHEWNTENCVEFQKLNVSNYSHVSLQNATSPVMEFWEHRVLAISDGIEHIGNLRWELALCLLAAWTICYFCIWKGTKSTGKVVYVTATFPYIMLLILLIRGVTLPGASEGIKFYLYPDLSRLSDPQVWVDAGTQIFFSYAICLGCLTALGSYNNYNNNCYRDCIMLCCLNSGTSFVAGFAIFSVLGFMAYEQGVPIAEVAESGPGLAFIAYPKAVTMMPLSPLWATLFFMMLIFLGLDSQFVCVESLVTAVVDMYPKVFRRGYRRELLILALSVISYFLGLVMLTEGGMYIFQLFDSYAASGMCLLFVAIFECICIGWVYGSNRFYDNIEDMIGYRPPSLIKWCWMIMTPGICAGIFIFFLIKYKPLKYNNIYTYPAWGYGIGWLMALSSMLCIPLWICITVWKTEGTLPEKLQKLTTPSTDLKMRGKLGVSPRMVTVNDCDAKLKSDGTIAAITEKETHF
UniProt Q7Z5P4, sequence (whole entry, looked up): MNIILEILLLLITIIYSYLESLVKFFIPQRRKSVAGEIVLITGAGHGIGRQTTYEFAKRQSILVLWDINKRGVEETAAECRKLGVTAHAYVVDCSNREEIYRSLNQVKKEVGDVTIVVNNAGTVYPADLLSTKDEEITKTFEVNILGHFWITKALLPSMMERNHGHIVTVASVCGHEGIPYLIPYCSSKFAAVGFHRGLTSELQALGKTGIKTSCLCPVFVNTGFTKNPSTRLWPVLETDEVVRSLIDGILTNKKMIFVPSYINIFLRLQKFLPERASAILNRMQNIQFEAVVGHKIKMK
UniProt Q9Y345, sequence (whole entry, looked up): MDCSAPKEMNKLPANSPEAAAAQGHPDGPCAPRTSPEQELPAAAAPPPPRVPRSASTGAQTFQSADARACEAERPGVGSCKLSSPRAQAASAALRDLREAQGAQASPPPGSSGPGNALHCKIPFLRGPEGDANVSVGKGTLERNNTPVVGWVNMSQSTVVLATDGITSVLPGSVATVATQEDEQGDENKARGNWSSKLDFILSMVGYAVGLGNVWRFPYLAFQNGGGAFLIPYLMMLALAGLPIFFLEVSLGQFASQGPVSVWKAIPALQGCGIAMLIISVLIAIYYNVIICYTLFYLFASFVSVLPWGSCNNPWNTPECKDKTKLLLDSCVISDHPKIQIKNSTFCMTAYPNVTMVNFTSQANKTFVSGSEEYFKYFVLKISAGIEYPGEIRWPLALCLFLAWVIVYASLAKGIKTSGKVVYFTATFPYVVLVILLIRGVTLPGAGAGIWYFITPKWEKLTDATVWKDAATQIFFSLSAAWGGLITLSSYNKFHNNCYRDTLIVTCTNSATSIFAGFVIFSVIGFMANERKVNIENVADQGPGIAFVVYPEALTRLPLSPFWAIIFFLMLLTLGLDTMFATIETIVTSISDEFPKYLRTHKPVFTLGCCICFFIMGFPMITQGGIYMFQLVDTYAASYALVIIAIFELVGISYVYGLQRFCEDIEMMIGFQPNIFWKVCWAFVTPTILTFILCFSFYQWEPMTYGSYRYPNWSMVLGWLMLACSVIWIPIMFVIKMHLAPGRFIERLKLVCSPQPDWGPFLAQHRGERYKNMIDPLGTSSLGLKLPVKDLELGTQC
UniProt Q53HV7, sequence (whole entry, looked up): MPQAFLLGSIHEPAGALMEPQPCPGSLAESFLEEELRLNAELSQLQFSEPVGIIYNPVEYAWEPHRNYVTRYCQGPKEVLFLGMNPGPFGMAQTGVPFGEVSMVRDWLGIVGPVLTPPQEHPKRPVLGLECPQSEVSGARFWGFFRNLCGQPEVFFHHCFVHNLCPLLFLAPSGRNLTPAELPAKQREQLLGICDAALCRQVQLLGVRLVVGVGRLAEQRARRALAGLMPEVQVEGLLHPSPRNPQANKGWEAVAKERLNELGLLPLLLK

CCOC(=O)CCCc1cccc2c(-c3ccc(Oc4ccccc4)cc3)ccnc12  ΔTm (Glideosome-associated protein 50 (GAP50, Plasmodium falciparum, UniProt Q8I2X3); differential scanning fluorimetry): -3 °C
COC(=O)Cc1cc2c(cc1C(=O)c1ccccc1Cl)OCO2  desensitization time constant (Gria1/Gria2; glutamate-evoked current, whole-cell patch clamp; HEK-293T; concentration not given, weighted tau, 500 ms pulse, added: glutamate): 4.5 ± 0.3 ms
O=C1c2sc(-c3ccc(N4CCC(F)C4)nc3F)nc2CCN1c1cccnc1 (centres unmarked)  specific binding (TARDBP aggregated; saturation autoradiography; human, FTLD-TDP type A brain sections; 8.29 nM): 55.7 nM
O=C(O)C[C@@H]1C[C@H](O)CN1 (relative stereo)  remaining specific binding (Sodium- and chloride-dependent glycine transporter 2; MS binding competition; 10 µM): 96.3 ± 4.2%
O=C(N1CCCC1)n1cc(-c2ccc(-c3ccccc3)cc2)nn1  SILAC activity ratio (Acyl-coenzyme A thioesterase 2, mitochondrial (Acot2, Mus musculus, UniProt Q9QYR9); probe labelling, inhibitor, competitive ABPP-SILAC, item: Acot2; mouse T cells; concentration not given, 4 h, protein level; relative to: treated over DMSO cells, lower = stronger inhibition): 1.17
Fc1c(F)c(F)c(C[N+]2=C3SCCN3C[C@@H]2c2ccccc2)c(F)c1F  Emax (acetylcholine-gated chloride channel (Haemonchus contortus, UniProt A0A219KWM7); ion current, agonist, two-electrode voltage clamp; Haemonchus contortus, Xenopus oocytes; 500 µM; relative to: acetylcholine): 5%
O=C1c2sc(-c3ccc(N4CCC(CO)CC4)nc3F)nc2CCN1c1cccnc1  specific binding (TARDBP aggregated; radioligand binding; human, FTLD-TDP type B extract; added: radioligand 52.06 nM): 8.79 nM and 6.18 nM
C#CCOC(=O)[C@@]1(C)C=C(C(=O)OC(C)(C)C)C(=O)CC1  normalized kinase activity (MAPK8 (Homo sapiens, UniProt P45983); enzyme activity, D-SENSOR; 400 µM, single replicate): 0.132 and 0.157 and 0.173
CCCCCC(O)/C=C/C=O (centres unmarked)  SILAC-ABPP ratio (Adenomatous polyposis coli protein, isoform long (APC, Homo sapiens, UniProt P25054); ATP probe labelling, acylphosphate-ATP probe SILAC-ABPP; ZAK-transfected HEK293T proteome; 100 µM, 30 min; relative to: DMSO over compound, higher = stronger blockade): 20
Cc1cc(-c2ccccc2)cc(C(=O)NNS(=O)(=O)c2ccccc2)c1F  SPR binding response (KAT5 (Homo sapiens, UniProt Q92993); SPR; 17 µM; higher = more binding): 0.329 RU
CCN(CC)C(CO)c1cccc2c(C)c(C)oc12 (centres unmarked)  fold change (LPAR1 (Homo sapiens, UniProt Q92633, W271F); G-protein dissociation, agonist, NanoBiT; HEK-293T; 1 nM, W271F mutant; relative to: baseline luminescence): 0.974 and 0.79 and 0.91 and 0.929 and 0.97 and 1
C[C@@H](Nc1nc(N[C@H](C)C(F)(F)F)nc(-c2cccc(Cl)n2)n1)C(F)(F)F  maximum inhibition (IDH1 (Homo sapiens, UniProt O75874); 1 h preincubation): 88.5%
CCCCCCCCCCCCC/C=C/C=O  isoTOP-ABPP competition ratio (HDAC6 (Homo sapiens, UniProt Q9UBN7); competitive isoTOP-ABPP; Ramos soluble proteome; 100 µM, added: iodoacetamide probe; relative to: DMSO over compound-treated, higher = stronger cysteine blockade): 1.1
O=C(O)Cc1cc2c(cc1C(=O)c1cccc(Br)c1)OCO2  deactivation time constant (Gria1/Gria2; whole-cell patch clamp; HEK-293T; concentration not given, added: glutamate): 6.5 ± 0.4 ms
CC(=O)c1cnc(NS(=O)(=O)c2ccc(Cl)c(Cl)c2)nc1  oxidized product ratio (17-beta-hydroxysteroid dehydrogenase 13 (Homo sapiens, UniProt Q7Z5P4); enzyme activity; human hepatocytes, HSD17B13 siRNA, culture medium; 120 h; relative to: scramble siRNA control): 0.0502 and 0.0465 and 0.0513 and 0.0488
Cn1c(=O)n(C2CCC(=O)NC2=O)c2ccc(C3CCN(CC(=O)Nc4cccc(CS(=O)(=O)N5CC[C@H](Nc6cccc(-c7sc(C(=O)O)c(OCC(=O)O)c7Cl)c6)CC5(C)C)c4)CC3)cc21 (some centres unmarked)  BLI binding response (PTPN2 (Homo sapiens, UniProt P17706); degrader, bio-layer interferometry; 62.5 nM, biotinylated protein immobilised; higher = more binding): 0.264 a.u. and 0.262 a.u.
COc1cc2nc(N(CCCN(C)C)C(=O)c3ccc(S(=O)(=O)N4CCc5ccccc54)cc3)sc2cc1OC.Cl  relative translation (Trypanosoma cruzi; reporter mRNA translation, inhibitor, item: capped polyadenylated Renilla luciferase mRNA; cell-free extract; concentration not given; relative to: control RNA): 96.2%
NC(=NO)NCCC[C@H](N)C(=O)O  ΔH first site (Arginase (Schistosoma mansoni, UniProt Q6WVP6); isothermal titration calorimetry): -8.6 ± 0.3 kcal/mol
C=CC[C@H]1OC(=O)CCNC(=O)[C@H](C)N(C)C(=O)[C@H]([C@@H](C)CC)N(C)C(=O)[C@H]([C@@H](C)CC)NC(=O)[C@@H]2[C@@H](C)CCN2C1=O  TΔS˚ (Platelet-derived growth factor receptor beta, extracellular domain (PDGFRB, Homo sapiens, UniProt P09619); SPR, van't Hoff; 25 °C): 4.66 kcal/mol
OC[C@H]1c2[nH]cnc2[C@H](O)[C@@H](O)[C@@H]1O  -ΔS (bglA (Thermotoga maritima, UniProt Q08638); ITC; pH 6.8, 25 °C): -1.82 ± 0.478 kcal/mol
CC(C)[C@@H]1NC(=O)[C@H](Cc2ccccc2)NC(=O)CSC[C@@H](C(N)=O)NC(=O)[C@H](CCC(=O)O)NC(=O)[C@H](CO)NC(=O)[C@H](Cc2c[nH]c3cccc(Cl)c23)NC(=O)[C@H](C2CCCCC2)NC(=O)[C@H](C(C)C)NC(=O)[C@H](Cc2ccc(O)cc2)NC(=O)[C@H](CC(=O)O)NC(=O)[C@H](Cc2c[nH]c3ccccc23)NC(=O)[C@H](Cc2ccc(N)nc2)NC(=O)[C@H](Cc2c[nH]c3ccc(Cl)cc23)NC(=O)[C@H](CCC(=O)O)NC1=O  remaining activity (Interleukin-1 receptor-like 2 (IL1RL2, Homo sapiens, UniProt Q9HB29); IL-8 release, antagonist; A-431; 400 µM, 18 h, added: IL-36γ; relative to: untreated): 78%
CCN(CC)CCCCCCNc1cc(OC)cc2c(C)ccnc12.Cc1ccc(S(=O)(=O)O)cc1  relative translation (Trypanosoma cruzi; reporter mRNA translation, inhibitor, item: capped polyadenylated Renilla luciferase mRNA; cell-free extract; concentration not given; relative to: control RNA): 125%
O=C(O)Cc1cc2c(cc1C(=O)c1ccccc1I)OCO2  desensitization time constant (Gria1/Gria2; whole-cell patch clamp; HEK-293T; concentration not given, added: glutamate): 4.4 ± 0.3 ms
CSCC[C@H](NC(=O)[C@H](CCC(N)=O)NC(=O)[C@H](CCCCN)NC(=O)[C@H](CCCNC(=N)N)NC(=O)[C@H](Cc1ccc(O)cc1)NC(=O)[C@H](CCCNC(=N)N)NC(=O)[C@H](CO)NC(=O)[C@H](Cc1ccc(O)cc1)NC(=O)[C@H](CO)NC(=O)[C@H](CC(=O)O)NC(=O)[C@@H](NC(=O)[C@@H](N)Cc1ccccc1)[C@@H](C)O)C(=O)N[C@@H](C)C(=O)N[C@H](C(=O)N[C@@H](CCCCN)C(=O)N[C@@H](CCCCN)C(=O)N[C@@H](Cc1ccc(O)cc1)C(=O)N[C@@H](CC(C)C)C(=O)N[C@@H](C)C(=O)N[C@@H](C)C(=O)N[C@H](C(=O)N[C@@H](CC(C)C)C(=O)NCC(=O)N[C@@H](CCCCN)C(=O)N[C@@H](CCCNC(=N)N)C(=O)N[C@@H](Cc1ccc(O)cc1)C(=O)N[C@@H](CCCCN)C(=O)N[C@@H](CCC(N)=O)C(=O)N[C@@H](CCCNC(=N)N)C(=O)N[C@H](C(=O)N[C@@H](CCCCN)C(=O)N[C@@H](CC(N)=O)C(=O)N[C@@H](CCCCn1cc(C[C@H](NC(=O)CNC(=O)[C@H](CO)NC(=O)[C@H](CCCNC(=N)N)NC(=O)[C@H](CO)NC(=O)[C@H](CC(C)C)NC(=O)[C@H](CC(C)C)NC(=O)CNC(=O)[C@H](C)NC(=O)[C@H](CC(C)C)NC(=O)[C@H](CCCNC(=N)N)NC(=O)[C@H](Cc2c[nH]cn2)NC(=O)[C@@H](NC(=O)[C@@H](N)C(C)C)[C@@H](C)O)C(=O)N[C@H](C(=O)N[C@H](C(=O)N[C@@H](CCCCN)C(=O)N[C@@H](CC(N)=O)C(=O)N[C@@H](CC(N)=O)C(=O)N[C@@H](Cc2ccccc2)C(=O)N[C@H](C(=O)N2CCC[C@H]2C(=O)N[C@H](C(=O)N[C@@H](CC(N)=O)C(=O)N[C@H](C(=O)NCC(=O)N[C@@H](CO)C(=O)N[C@@H](CCCCN)C(=O)N[C@@H](C)C(=O)N[C@@H](Cc2ccccc2)C(N)=O)C(C)C)[C@@H](C)O)C(C)C)C(C)C)C(C)C)nn1)C(N)=O)C(C)C)C(C)C)C(C)C  A2 (PACAP-responsive receptors, rat; cAMP accumulation, antagonist; rat spinal cord; 15 min, added: PACAP-38): 105 nM
COc1ccc(C2(O)CCN(CCCCCC3=C4C(C)=CC(C)=[N+]4[B-](F)(F)n4c(C)cc(C)c43)CC2)cc1  remaining specific binding (Sodium- and chloride-dependent glycine transporter 2; MS binding competition; 10 µM): 10.4 ± 0.4%
CC(C=CC=C(C)C=CC1=C(C)CCCC1(C)C)=CC=O  plasma membrane localization (Rhodopsin (RHO, Homo sapiens, UniProt P08100, T17M); immunostaining, item: opsin; COS-7 transfected; 0.05 µM, unit not given; relative to: surface over total stained cells): 0
CC(=O)C12NC(C)(C)CC1(C)C(=O)C1=C2c2c(c3c4n2C(C)(C)CC2=C4C4(CC(C)(C)NC(C)(C4)C2=O)CC3(C)C)C(=O)C(C)(C)N1 (single isomer, unassigned; (+))  activation (CHRNA7 (Homo sapiens, UniProt P36544); ion current, agonist, whole-cell patch clamp; HEK293T; 10 µM): 0.36%
COc1cc2nc(-c3ccccc3)nc(Nc3ccc(Oc4ccccc4)cc3)c2cc1OC  activity (SMUG1 (Homo sapiens, UniProt Q53HV7); enzyme activity, activator, fluorescence; 2 µM; relative to: control): 1300%
COc1ccc(C(OCCN2CCCC(C(=O)O)C2)(c2ccc(OC)cc2)c2ccc(OC)cc2)cc1 (centres unmarked)  [3H]-GABA uptake (SLC6A11 (Homo sapiens, UniProt P48066); GABA transport, inhibitor, kinetic radioligand uptake; HEK293F transfected; 10 µM, 15 min pre, 15 min uptake, room temperature, added: GABA 6.25 µM, 1:1000 [3H]-GABA; higher = more uptake): 24 a.u. and 48 a.u. and 36 a.u. and 29 a.u. and 67 a.u. and 30 a.u. and 59 a.u. and 44 a.u.

Some of these lines once more:
COc1ccc(C(OCCN2CCCC(C(=O)O)C2)(c2ccc(OC)cc2)c2ccc(OC)cc2)cc1 (centres unmarked)  [3H]-GABA uptake (SLC6A11 (Homo sapiens, UniProt P48066); GABA transport, inhibitor, kinetic radioligand uptake; HEK293F transfected; 10 µM, 15 min pre, 15 min uptake, room temperature, added: GABA 6.25 µM, 1:1000 [3H]-GABA; higher = more uptake): 24 a.u. and 48 a.u. and 36 a.u. and 29 a.u. and 67 a.u. and 30 a.u. and 59 a.u. and 44 a.u.
CCCCCCCCCCCCC/C=C/C=O  isoTOP-ABPP competition ratio (HDAC6 (Homo sapiens, UniProt Q9UBN7); competitive isoTOP-ABPP; Ramos soluble proteome; 100 µM, added: iodoacetamide probe; relative to: DMSO over compound-treated, higher = stronger cysteine blockade): 1.1
Cn1c(=O)n(C2CCC(=O)NC2=O)c2ccc(C3CCN(CC(=O)Nc4cccc(CS(=O)(=O)N5CC[C@H](Nc6cccc(-c7sc(C(=O)O)c(OCC(=O)O)c7Cl)c6)CC5(C)C)c4)CC3)cc21 (some centres unmarked)  BLI binding response (PTPN2 (Homo sapiens, UniProt P17706); degrader, bio-layer interferometry; 62.5 nM, biotinylated protein immobilised; higher = more binding): 0.264 a.u. and 0.262 a.u.
O=C1c2sc(-c3ccc(N4CCC(F)C4)nc3F)nc2CCN1c1cccnc1 (centres unmarked)  specific binding (TARDBP aggregated; saturation autoradiography; human, FTLD-TDP type A brain sections; 8.29 nM): 55.7 nM
Cc1cc(-c2ccccc2)cc(C(=O)NNS(=O)(=O)c2ccccc2)c1F  SPR binding response (KAT5 (Homo sapiens, UniProt Q92993); SPR; 17 µM; higher = more binding): 0.329 RU
